Assay results pooled from the literature.
Parts stem from different laboratories: compare values within a part only.

Sample 1 — technique: competition protein-binding microarray; molecule type: double-stranded DNA, one strand shown; medium: in vitro; concentration: 2 µM; with: Cbf1 competitor, 0.05 µM; direction: higher = stronger binding
Target: Phosphate system positive regulatory protein PHO4, full length, GST-tagged (PHO4, Saccharomyces cerevisiae, UniProt P07270, residues 1-312)
Notes: whole 60-bp probe, lowest competitor level
Construct (chain): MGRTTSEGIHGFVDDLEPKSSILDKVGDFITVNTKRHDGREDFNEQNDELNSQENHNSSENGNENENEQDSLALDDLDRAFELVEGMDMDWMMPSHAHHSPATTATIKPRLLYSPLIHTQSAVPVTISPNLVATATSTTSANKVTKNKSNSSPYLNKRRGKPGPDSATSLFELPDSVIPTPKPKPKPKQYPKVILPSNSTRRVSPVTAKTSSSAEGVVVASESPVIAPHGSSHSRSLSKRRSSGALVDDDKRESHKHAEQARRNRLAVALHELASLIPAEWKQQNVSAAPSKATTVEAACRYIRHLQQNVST
| Oligonucleotide | fluorescence intensity [a.u.] |
| --- | --- |
| GTAAGTCAAAATCCGCGCGTGACTCGTAAAGCGTTAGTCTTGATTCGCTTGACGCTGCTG | 7540 |
| GACTCCATCTGGGCACAACTGGGTTAGTGGTCAAGGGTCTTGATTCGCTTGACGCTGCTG | 4130 |
| CATACCCAACCTTGTAGCGTGGGTGAAGATATTTGTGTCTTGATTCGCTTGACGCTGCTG | 6830 |
| CTTTCCCGATCTTGATTTGTGGGTGTAGCACATTTGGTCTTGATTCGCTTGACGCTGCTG | 4450 |
| CTGTACGTTGGCATCCGCGTGCTTTAAAAGGGTGTAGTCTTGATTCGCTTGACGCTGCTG | 12200 |
| CTTCTGTAAATTTGACAAGTGGGTGGACGCGCCCCGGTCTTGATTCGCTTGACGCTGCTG | 3800 |
| TTCTTGATTAGGACGCCCATGAAGTGGGCCAGCCAAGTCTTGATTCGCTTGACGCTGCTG | 3360 |
| CGGGGTTAAGTTTGCCTTGTGGGTGGCTTGCAGCAGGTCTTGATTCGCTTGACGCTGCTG | 6290 |

Sample 2 — effect on: enzyme activity; action: inhibitor; concentration: 20 µM
Target: Replicase polyprotein 1ab, polymerase (rep, Severe acute respiratory syndrome coronavirus 2, UniProt P0DTD1)
| Structure (SMILES) | inhibition [%] |
| --- | --- |
| O=C1Nc2cc(Cl)c(Cl)cc2N2CCNCC12 (stereo not shown) | 0.22 |
| C[C@@]12CCc3occc3[C@H]1CC[C@@]13C[C@@H](CC[C@H]12)[C@@](O)(CO)C3 | 1.96 |
| Cc1ccc(/C=C2/C(=O)[C@]3(C)CC[C@H]2C3(C)C)cc1 | -1.26 |
| O=S1(=O)OC(c2ccc(O)cc2)(c2ccc(O)cc2)c2ccccc21 | 15.6 |
| Oc1ccc2c3c1O[C@H]1c4c(c5ccccc5n4Cc4ccccc4)C[C@@]4(O)[C@@H](C2)N(CC2CC2)CC[C@]314 | -4.65 |
| O=[N+]([O-])C(Br)(CO)CO | 0.29 |
| Cc1c(-c2ccccc2)oc2c(C(=O)OCCN3CCCCC3)cccc2c1=O | 2.22 |
| COc1ccc(C(=O)CC2(O)C(=O)Nc3c(Cl)ccc(Cl)c32)cc1 (stereo not shown) | -10 |
| CNc1ncc2cc(-c3cc(NC(=O)NCCC(C)(C)C)c(F)cc3C)c(C)nc2n1 | -1.02 |
| OC[C@H]1O[C@@H](O[C@@H]2[C@H](O)[C@@H](O)[C@H](O[C@H]3[C@H](O)[C@@H](O)C(O)O[C@@H]3CO)O[C@@H]2CO)[C@H](O)[C@@H](O)[C@H]1O (stereo partly shown) | -0.72 |
| O=C(Nc1c(-c2cccs2)nc2ccccn12)c1ccc(Cl)cc1 | 1.21 |
| Cc1oc(-c2ccccc2)nc1CCOc1ccc(CC2SC(=O)NC2=O)c2sccc12 (stereo not shown) | -16.8 |
| O=C(NC1CC1)c1cc(-c2cccs2)on1 | -6.74 |
| CCCCC/N=c1\ccn(Cc2ccccc2)c2ccccc12 | -6.06 |
| Cc1cc(C)c(NC(=O)C2CC3CCC2C3)c(C)c1 (stereo not shown) | -1.68 |
| C[C@@H](N)[C@H]1CC[C@H](C(=O)Nc2ccncc2)CC1 | -7.68 |
| CN(C)c1ccccc1CN1CCCN(Cc2ccccc2N(C)C)C1c1ccncc1 | -6.14 |
| O=C(O)c1ccccc1Nc1cccc(C(F)(F)F)c1 | 31.4 |
| Cc1ccc(C(=O)N(CCCN)[C@@H](c2nc3cc(Cl)ccc3c(=O)n2Cc2ccccc2)C(C)C)cc1 | 2.16 |
| CN(C)c1ccc(/C=C2\CCCN=C2c2cccnc2)cc1 | 11.2 |
| CN1C(=O)N(C)C2C1N(C)C(=O)N2C (stereo not shown) | 3.08 |
| Cc1ccccc1OCC(O)CNCCOc1ccc(C(N)=O)cc1 (stereo not shown) | 0.11 |

Sample 3 — cell line: HEK-293T; effect on: pseudovirus infection; organism: VSV pseudotyped with SARS-CoV-2 spike; concentration: 10 µM; time: 16 h; reference: vehicle-treated
| Compound | GFP-positive cells |
| --- | --- |
| CC(C[N+](C)(C)C)OC(N)=O (stereo not shown) | 85.3% |
| COc1ccc(CN(C(=O)[C@@H](N)Cc2c(C)cc(C(N)=O)cc2C)[C@@H](C)c2ncc(-c3ccccc3)[nH]2)cc1C(=O)O | 78.9% |
| CC(=O)O[C@H]1Cc2ccccc2N(C(N)=O)c2ccccc21 | 76.2% |
| CN1CCCC(n2nc(Cc3ccc(Cl)cc3)c3ccccc3c2=O)CC1 (stereo not shown) | 31.2% |

Sample 4 — technique: protein binding microarray; molecule type: double-stranded DNA, one strand shown; medium: in vitro; concentration: not given; reference: not given; direction: higher = stronger binding
Target: Histone acetyltransferase KAT6A, winged helix 1, GST fusion (KAT6A, Homo sapiens, UniProt Q92794, residues 1-85)
Notes: 8-mer, flanks averaged, mean of 2 arrays, mostly near background
Target sequence (chain): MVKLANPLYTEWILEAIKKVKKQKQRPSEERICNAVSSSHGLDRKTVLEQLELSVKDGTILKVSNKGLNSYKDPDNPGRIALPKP
| Oligonucleotide | E-score |
| --- | --- |
| CTCCACGC | 0.156 |
| CTTGAGCC | -0.0455 |
| ACAAGATC | -0.0481 |
| AACCAAAC | -0.00436 |
| TACCCTAA | -0.182 |
| ACAGCTGA | -0.189 |
| CGTCCACC | -0.0439 |
| AATTCACT | -0.184 |

Sample 5 — effect on: enzyme activity; action: inhibitor; concentration: 20 µM; notes: hit confirmation, no DTT
Target: Replicase polyprotein 1ab, main protease (rep, Severe acute respiratory syndrome coronavirus 2, UniProt P0DTD1)
| SMILES | inhibition |
| --- | --- |
| CN(CCCN1c2ccccc2CCc2ccccc21)CC(=O)c1ccc(Cl)cc1 | 68.1% |
| COc1cc(N(C)C)cc(CN(C)CCc2ccc([N+](=O)[O-])cc2)c1O | 104% |
| CC(C)N(CCC(=O)c1ccc2ccccc2c1)Cc1ccccc1 | 78.2% |
| CC(=O)[O][Hg][c]1ccccc1 | 100% |

A few entries again (sample 4):
| Oligonucleotide | E-score |
| --- | --- |
| ACAAGATC | -0.0481 |
| AACCAAAC | -0.00436 |
| TACCCTAA | -0.182 |
| ACAGCTGA | -0.189 |
| CGTCCACC | -0.0439 |
